Assay results pooled from the literature.
Parts stem from different laboratories: compare values within a part only.
Chain of UniProt P51955 (whole entry, looked up): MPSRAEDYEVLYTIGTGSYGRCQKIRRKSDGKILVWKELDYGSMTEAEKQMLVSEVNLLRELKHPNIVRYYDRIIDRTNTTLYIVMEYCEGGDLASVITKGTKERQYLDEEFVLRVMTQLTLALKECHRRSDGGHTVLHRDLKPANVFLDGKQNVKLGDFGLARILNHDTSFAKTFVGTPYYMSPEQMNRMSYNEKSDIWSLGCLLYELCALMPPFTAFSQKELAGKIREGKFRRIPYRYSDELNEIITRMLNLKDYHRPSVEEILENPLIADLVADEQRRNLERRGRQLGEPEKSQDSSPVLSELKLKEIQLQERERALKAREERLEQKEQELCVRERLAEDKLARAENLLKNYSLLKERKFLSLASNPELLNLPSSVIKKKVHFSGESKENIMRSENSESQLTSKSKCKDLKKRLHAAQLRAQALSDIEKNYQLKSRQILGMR
Chain of UniProt P30291 (whole entry, looked up): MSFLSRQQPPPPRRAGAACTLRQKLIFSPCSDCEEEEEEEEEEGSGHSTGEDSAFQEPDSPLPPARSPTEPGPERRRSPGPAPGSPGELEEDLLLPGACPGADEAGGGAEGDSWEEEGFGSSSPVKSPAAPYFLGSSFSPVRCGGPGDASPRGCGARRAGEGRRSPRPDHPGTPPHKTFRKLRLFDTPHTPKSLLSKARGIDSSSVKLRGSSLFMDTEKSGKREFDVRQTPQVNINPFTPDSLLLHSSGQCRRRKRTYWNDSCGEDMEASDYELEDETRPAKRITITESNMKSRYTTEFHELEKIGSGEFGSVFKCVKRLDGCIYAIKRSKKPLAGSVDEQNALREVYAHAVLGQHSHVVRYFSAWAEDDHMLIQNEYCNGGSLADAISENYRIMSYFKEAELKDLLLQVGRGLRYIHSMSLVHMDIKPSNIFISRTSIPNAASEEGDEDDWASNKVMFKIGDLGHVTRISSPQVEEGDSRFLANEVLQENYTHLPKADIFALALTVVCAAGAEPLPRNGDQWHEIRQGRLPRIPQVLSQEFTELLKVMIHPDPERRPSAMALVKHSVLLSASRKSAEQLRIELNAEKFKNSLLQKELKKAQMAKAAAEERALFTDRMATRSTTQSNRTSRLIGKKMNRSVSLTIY
Chain of UniProt Q14164 (whole entry, looked up): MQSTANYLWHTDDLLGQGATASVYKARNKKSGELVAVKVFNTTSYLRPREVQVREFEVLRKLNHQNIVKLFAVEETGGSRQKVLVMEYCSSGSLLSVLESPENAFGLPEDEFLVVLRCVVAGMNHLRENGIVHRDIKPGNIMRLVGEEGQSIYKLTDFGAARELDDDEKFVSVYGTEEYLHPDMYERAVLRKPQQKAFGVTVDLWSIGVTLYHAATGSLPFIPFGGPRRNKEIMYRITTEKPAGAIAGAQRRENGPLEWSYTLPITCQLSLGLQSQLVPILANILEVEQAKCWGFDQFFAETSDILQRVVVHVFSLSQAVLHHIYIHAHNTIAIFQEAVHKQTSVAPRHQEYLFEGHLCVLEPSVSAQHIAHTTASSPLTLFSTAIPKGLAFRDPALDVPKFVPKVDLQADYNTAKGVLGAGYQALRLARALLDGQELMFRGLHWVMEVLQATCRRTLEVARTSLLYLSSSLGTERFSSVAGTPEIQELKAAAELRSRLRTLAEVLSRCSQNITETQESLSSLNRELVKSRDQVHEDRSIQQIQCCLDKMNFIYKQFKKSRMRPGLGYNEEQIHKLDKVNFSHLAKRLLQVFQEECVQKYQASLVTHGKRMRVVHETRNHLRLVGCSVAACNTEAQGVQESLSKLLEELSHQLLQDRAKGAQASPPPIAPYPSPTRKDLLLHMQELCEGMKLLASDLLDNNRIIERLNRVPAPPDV
Chain of UniProt Q96RR4 (whole entry, looked up): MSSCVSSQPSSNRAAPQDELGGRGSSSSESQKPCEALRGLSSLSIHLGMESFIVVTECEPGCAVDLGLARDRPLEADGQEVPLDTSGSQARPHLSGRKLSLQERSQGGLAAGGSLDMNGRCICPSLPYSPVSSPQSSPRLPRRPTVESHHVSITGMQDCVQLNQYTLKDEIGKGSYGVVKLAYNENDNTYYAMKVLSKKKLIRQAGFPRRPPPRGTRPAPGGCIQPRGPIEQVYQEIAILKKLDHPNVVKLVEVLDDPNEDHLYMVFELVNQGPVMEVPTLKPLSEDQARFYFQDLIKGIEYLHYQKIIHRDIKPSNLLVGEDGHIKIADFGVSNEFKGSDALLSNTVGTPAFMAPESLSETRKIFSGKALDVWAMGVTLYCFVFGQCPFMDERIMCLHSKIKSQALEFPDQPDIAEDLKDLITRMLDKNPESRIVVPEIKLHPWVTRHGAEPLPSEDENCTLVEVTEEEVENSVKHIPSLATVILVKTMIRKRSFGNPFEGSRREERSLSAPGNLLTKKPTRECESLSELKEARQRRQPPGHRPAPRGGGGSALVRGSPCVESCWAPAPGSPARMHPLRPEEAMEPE
Chain of UniProt P35626 (whole entry, looked up): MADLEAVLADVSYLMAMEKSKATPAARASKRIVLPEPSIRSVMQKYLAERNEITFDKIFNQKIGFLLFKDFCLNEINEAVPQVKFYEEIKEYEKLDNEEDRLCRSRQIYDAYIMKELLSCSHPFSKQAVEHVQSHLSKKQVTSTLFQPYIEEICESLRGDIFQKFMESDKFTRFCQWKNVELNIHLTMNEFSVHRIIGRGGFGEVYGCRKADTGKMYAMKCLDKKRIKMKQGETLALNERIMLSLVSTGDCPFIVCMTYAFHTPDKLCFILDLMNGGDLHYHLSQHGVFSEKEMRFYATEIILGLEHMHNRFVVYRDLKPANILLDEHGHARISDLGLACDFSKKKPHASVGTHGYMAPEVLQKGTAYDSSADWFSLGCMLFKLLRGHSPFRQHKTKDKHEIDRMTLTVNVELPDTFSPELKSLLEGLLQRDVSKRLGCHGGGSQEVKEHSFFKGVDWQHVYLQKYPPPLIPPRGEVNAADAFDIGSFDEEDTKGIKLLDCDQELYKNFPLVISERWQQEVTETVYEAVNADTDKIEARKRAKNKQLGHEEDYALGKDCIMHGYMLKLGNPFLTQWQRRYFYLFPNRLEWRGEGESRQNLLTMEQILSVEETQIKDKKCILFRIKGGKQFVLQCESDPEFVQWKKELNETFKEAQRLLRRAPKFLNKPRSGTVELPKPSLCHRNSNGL
Chain of UniProt P00519 (whole entry, unmodified, looked up): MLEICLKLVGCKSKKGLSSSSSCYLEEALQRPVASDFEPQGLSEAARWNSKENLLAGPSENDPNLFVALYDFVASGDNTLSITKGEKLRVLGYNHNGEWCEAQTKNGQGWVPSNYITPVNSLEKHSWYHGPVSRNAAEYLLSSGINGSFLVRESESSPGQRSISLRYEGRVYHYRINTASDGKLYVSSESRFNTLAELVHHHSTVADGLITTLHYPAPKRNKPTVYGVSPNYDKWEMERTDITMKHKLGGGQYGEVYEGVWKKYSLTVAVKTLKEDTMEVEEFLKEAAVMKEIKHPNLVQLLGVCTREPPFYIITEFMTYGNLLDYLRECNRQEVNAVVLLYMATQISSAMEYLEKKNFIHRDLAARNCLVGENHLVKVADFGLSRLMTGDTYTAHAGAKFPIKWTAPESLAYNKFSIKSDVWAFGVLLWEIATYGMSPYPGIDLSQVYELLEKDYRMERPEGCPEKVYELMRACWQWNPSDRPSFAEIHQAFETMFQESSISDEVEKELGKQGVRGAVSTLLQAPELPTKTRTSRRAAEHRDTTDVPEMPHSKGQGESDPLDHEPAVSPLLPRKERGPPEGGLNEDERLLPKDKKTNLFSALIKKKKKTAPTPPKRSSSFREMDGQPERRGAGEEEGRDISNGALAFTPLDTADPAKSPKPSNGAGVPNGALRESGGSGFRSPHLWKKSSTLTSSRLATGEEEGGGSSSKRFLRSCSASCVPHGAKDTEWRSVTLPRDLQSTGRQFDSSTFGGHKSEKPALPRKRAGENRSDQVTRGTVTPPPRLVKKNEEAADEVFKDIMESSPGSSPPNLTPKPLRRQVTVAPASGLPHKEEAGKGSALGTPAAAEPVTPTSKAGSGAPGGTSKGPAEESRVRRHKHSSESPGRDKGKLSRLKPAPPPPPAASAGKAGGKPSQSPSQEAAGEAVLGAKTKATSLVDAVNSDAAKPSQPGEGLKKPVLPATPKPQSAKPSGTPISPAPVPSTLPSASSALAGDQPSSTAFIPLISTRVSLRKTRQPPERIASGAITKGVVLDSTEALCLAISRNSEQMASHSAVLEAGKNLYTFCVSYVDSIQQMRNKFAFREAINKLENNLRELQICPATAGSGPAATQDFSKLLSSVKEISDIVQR

Study 1
SMILES: C[C@@]1(Cc2ccc(C#N)cc2)C(=O)N(c2cc(Cl)cc(Cl)c2)c2ncc(C(=O)NC3(c4nc(C5CCC5)no4)CC3)n21
Observed: cell-free assay
Technique: competition with immobilised ligand
Tested at: 1 µM
Quantity: remaining binding
Wee1-like protein kinase (WEE1, Homo sapiens, UniProt P30291): 100%
Tyrosine-protein kinase ABL1, non-phosphorylated (ABL1, Homo sapiens, UniProt P00519, F317L): 100%
Hepatocyte growth factor receptor (MET, Homo sapiens, UniProt P08581, Y1235D): 100%

Study 2
Target: Prothrombin, mature alpha-thrombin (F2, Homo sapiens, UniProt P00734)
Technique: aptamer microarray, sandwich
Form: DNA with 2'F-ANA
Sample: in vitro
Tested at: 200 nM
Notes: whole 15-mer aptamer, many near background
With: Cy3 exosite-II aptamer, 400 nM
Reading: higher = stronger binding
Quantity: mean fluorescence intensity
Strand: GGTTGGTGTGGTTGG
2'F-ANA at 1 2 5 6 7 8 10 11 12 14: 56.4 a.u.
2'F-ANA at 7 9 10 11 15: 345 a.u.
2'F-ANA at 2 3 5 6 7 10 11 15: 53.1 a.u.
2'F-ANA at 2 3 4 5 6 7 10 11: 55 a.u.
2'F-ANA at 2 3 4 5 6 8 10 11 14 15: 51.2 a.u.
2'F-ANA at 2 3 6 7 11: 629 a.u.
2'F-ANA at 2 3 4 5 8 12: 239 a.u.
2'F-ANA at 2 3 7 8 9 10 14 15: 304 a.u.

Study 3
SMILES: O=C(Nc1cccc(Nc2nccc(Nc3cccc(C(F)(F)F)c3)n2)c1)C1CC1
Observed: enzyme activity
Mode: inhibitor
Tested at: 0.5 µM
Relative to: control
Quantity: remaining activity
Serine/threonine-protein kinase OSR1 (OXSR1, Homo sapiens, UniProt O95747): 78.9%
Death-associated protein kinase 1 (DAPK1, Homo sapiens, UniProt P53355): 83.5%
Serine/threonine-protein kinase Nek2 (NEK2, Homo sapiens, UniProt P51955): 95.3%
Inhibitor of nuclear factor kappa-B kinase subunit epsilon (IKBKE, Homo sapiens, UniProt Q14164): 97.5%
G protein-coupled receptor kinase 3 (GRK3, Homo sapiens, UniProt P35626): 93.1%
TGF-beta receptor type-2 (TGFBR2, Homo sapiens, UniProt P37173): 91.6%
Protein kinase C alpha type (PRKCA, Homo sapiens, UniProt P17252): 71.9%
cAMP-dependent protein kinase catalytic subunit alpha (PRKACA, Homo sapiens, UniProt P17612): 91.7%
STE20/SPS1-related proline-alanine-rich protein kinase (STK39, Homo sapiens, UniProt Q9UEW8): 94.1%
Calcium/calmodulin-dependent protein kinase kinase 2 (CAMKK2, Homo sapiens, UniProt Q96RR4): 99.5%
Mitogen-activated protein kinase 9 (MAPK9, Homo sapiens, UniProt P45984): 98.7%

Study 4
Target: Runt-related transcription factor 1, full length (RUNX1, Homo sapiens, UniProt Q01196-8, residues 1-480)
Technique: protein-binding microarray
Form: hairpin DNA
Sample: in vitro
Tested at: not given
Notes: whole hairpin DNA, median over replicate spots
Relative to: not given
Reading: higher = stronger binding
Quantity: median fluorescence
GAGGCCTGTTGCGGTGGGCCTCCTGGCCCACCGCAACAGGCCTCACACTC: 3210 a.u.
GAGGCCCAACCGCAACAGCCTCCTGGCTGTTGCGGTTGGGCCTCACACTC (5mC at 7): 5610 a.u.
GAGGCCTGTTTCGGTTGGCCTCCTGGCCAACCGAAACAGGCCTCACACTC: 1800 a.u.
GAGGCCTGTTGTGGTTGGCCTCCTGGCCAACCACAACAGGCCTCACACTC (5mC at 34): 3810 a.u.
GAGGCCCAACCGCAACGGCCTCCTGGCCGTTGCGGTTGGGCCTCACACTC (5mC at 16 28): 6780 a.u.
GAGGCCTGTTGTGCTTGGCCTCCTGGCCAAGCACAACAGGCCTCACACTC (5mC at 14): 1600 a.u.
GACGCCTGTCGCGGTTGGCCTCCTGGCCAACCGCGACAGGCGTCACACTC (5mC at 3): 2510 a.u.
GAGGCCTGTTGTTGTTGGCCTCCTGGCCAACAACAACAGGCCTCACACTC: 1690 a.u.
